Experimental data gathered from unrelated publications.
pEC50: −log10 of the molar value.

| Compound | organism | test | system | setting | measurement | value |
| --- | --- | --- | --- | --- | --- | --- |
| O=C(N/N=C1\C(=O)Nc2ccc([N+](=O)[O-])cc21)N/N=C1\C(=O)Nc2ccc([N+](=O)[O-])cc21 | vesicular stomatitis virus | viral replication | HeLa |  | pEC50 | < 4.00 |
| CN1COCN(Cc2cnc(Cl)s2)/C1=N\[N+](=O)[O-] | Folsomia candida | reproduction, OECD 232 | LUFA 2.2 soil | 28 days | EC50 | 0.2 mg/kg dry soil |
| CC1SC2(CCC(c3ccc(O)cc3)CC2)N(NC(=O)Cc2csc3nc(-c4ccc(Br)cc4)cn23)C1=O (stereo not shown) | vesicular stomatitis virus | viral cytopathic effect | HEL |  | EC50 | > 100 µg/mL |
| Nc1ncnc2c1ncn2C[C@H](O)CO | vesicular stomatitis virus | viral replication | HeLa |  | pEC50 | < 3.60 |
| O=C(Cc1csc2nc(-c3ccc(Br)cc3)cn12)NN1C(=O)CSC12CCC(c1ccccc1)CC2 (stereo not shown) | vesicular stomatitis virus | viral cytopathic effect | HEL |  | EC50 | > 100 µg/mL |
| O=[N+]([O-])NC1=NCCN1Cc1ccc(Cl)nc1 | Folsomia candida | reproduction, OECD 232 | LUFA 2.2 soil | 28 days | EC50 | 0.25 mg/kg dry soil |
| Cc1ccc(S(=O)(=O)N2C(=O)CSC2c2ccccc2F)cc1 (stereo not shown) | influenza B virus | viral cytopathicity, visual CPE scoring | MDCK, B/Ned/537/05 |  | pEC50 | < 4.00 |
| Nc1nc(O)c2ncn(COC(CO)CO)c2n1 | vesicular stomatitis virus | viral cytopathic effect | HEL |  | pEC50 | < 4.00 |
| Cc1ccc(S(=O)(=O)N2C(=O)CSC2c2ccc(O)cc2)cc1 (stereo not shown) | influenza B virus | viral cytopathicity, visual CPE scoring | MDCK, B/Ned/537/05 |  | pEC50 | < 4.00 |
| O=C1/C(=N\NC(=S)NN=Cc2ccccc2)c2ccccc2N1Cc1ccccc1 | vesicular stomatitis virus | viral replication | HeLa |  | pEC50 | < 4.70 |
| Cc1ccc(S(=O)(=O)N2C(=O)CSC2c2ccccc2O)cc1 (stereo not shown) | influenza B virus | viral cytopathicity, visual CPE scoring | MDCK, B/Ned/537/05 |  | pEC50 | < 4.00 |
| Cc1ccc2c(c1)/C(=N/NC(=O)N/N=C1\C(=O)Nc3ccc(C)cc31)C(=O)N2 | vesicular stomatitis virus | viral replication | HeLa |  | pEC50 | < 4.00 |
| O=c1[nH]c(=O)n([C@H]2C[C@H](O)[C@@H](CO)O2)cc1/C=C/Br | vesicular stomatitis virus | viral cytopathic effect | HEL |  | pEC50 | < 3.60 |
| Cc1ccc(S(=O)(=O)N2C(=O)CSC2c2ccccc2[N+](=O)[O-])cc1 (stereo not shown) | influenza B virus | viral cytopathicity, visual CPE scoring | MDCK, B/Ned/537/05 |  | pEC50 | < 4.00 |
| CC1SC2(CCC(c3ccccc3)CC2)N(NC(=O)Cc2csc3nc(-c4ccc(Br)cc4)cn23)C1=O (stereo not shown) | vesicular stomatitis virus | viral cytopathic effect | HEL |  | EC50 | > 100 µg/mL |
| Cc1ccc(S(=O)(=O)N2C(=O)CSC2c2cccc([N+](=O)[O-])c2)cc1 (stereo not shown) | influenza B virus | viral cytopathicity, visual CPE scoring | MDCK, B/Ned/537/05 |  | pEC50 | < 4.00 |
